Measured values collected from several papers.
Each numbered part is a random draw from the data of one study; scales do not carry over between parts. Positions count from the first letter of the parent shown.

Sample 1 — method: aptamer microarray, sandwich; form: DNA with 2'F-ANA; matrix: in vitro; tested at: 200 nM; together with: Cy3 exosite-II aptamer, 400 nM; direction: higher = stronger binding; strand: GGTTGGTGTGGTTGG
Target: Prothrombin, mature alpha-thrombin (F2, Homo sapiens, UniProt P00734)
Setting: whole 15-mer aptamer, many near background
| Modification | mean fluorescence intensity [a.u.] |
| --- | --- |
| 2'F-ANA at 2 3 4 5 6 7 8 11 12 13 | 108 |
| 2'F-ANA at 1 2 4 6 9 10 11 13 | 68.3 |
| 2'F-ANA at 1 11 12 13 14 | 245 |
| 2'F-ANA at 1 7 8 13 14 15 | 69.3 |
| 2'F-ANA at 6 7 9 13 | 349 |
| 2'F-ANA at 1 2 3 6 7 9 11 12 15 | 250 |
| 2'F-ANA at 3 5 8 10 | 58.1 |
| 2'F-ANA at 2 3 4 10 12 | 303 |
| 2'F-ANA at 6 8 10 13 15 | 146 |
| 2'F-ANA at 1 3 4 7 9 10 12 13 14 | 52.8 |
| 2'F-ANA at 3 4 10 11 15 | 267 |
| 2'F-ANA at 7 9 10 12 15 | 229 |
| 2'F-ANA at 1 2 5 6 11 12 13 15 | 71.9 |
| 2'F-ANA at 1 2 4 5 6 7 8 10 12 | 53.7 |
| 2'F-ANA at 3 4 6 9 10 12 13 14 | 281 |
| 2'F-ANA at 1 3 4 5 6 8 9 11 14 15 | 53.4 |
| 2'F-ANA at 2 5 6 9 10 15 | 62 |
| 2'F-ANA at 1 3 4 7 9 10 11 14 | 62.8 |
| 2'F-ANA at 3 6 10 13 | 478 |
| 2'F-ANA at 2 3 4 8 10 11 12 13 | 252 |
| 2'F-ANA at 2 3 5 6 8 11 12 13 15 | 126 |
| 2'F-ANA at 1 2 5 6 8 9 12 14 | 103 |
| 2'F-ANA at 1 3 5 6 8 9 10 12 13 15 | 61.2 |
| 2'F-ANA at 1 7 9 13 14 | 53.5 |
| 2'F-ANA at 1 2 3 9 11 13 | 188 |

Sample 2 — method: protein-binding microarray; form: double-stranded DNA, one strand shown; matrix: in vitro; tested at: 250 nM; setting: 60-bp whole probe; together with: salmon DNA 0.4 mg/ml; reference: random background probes; direction: higher = stronger binding; constant ends, left off below: GCCTAGCAC … GTCTTGATTCGCTTGACGCTGCTG
Target: Interferon regulatory factor 5, full length, phosphomimetic (IRF5, Homo sapiens, UniProt Q13568-2, residues 1-514, K96S/S451D/S453D/S456D/S462D)
| Strand | log fluorescence [z-score] |
| --- | --- |
| TTTTTTTTTTTTTTTTTGGAGTGCTAG | 1.28 |
| GTGACTCAGCACTTTGGCATGGTGCTA | -0.696 |
| TCATTATTTATTTTTACACTGTGCTAG | 1.28 |
| GATGTTTTTCATTTTTTTTCGTGCTAG | 2.29 |
| GACGGAGTGGGTATCGGGACGTGCTAG | 0.391 |
| TTAGATATCGGGCATCGATTAGTGCTA | 1.71 |
| GACTATATCGGGACTGGAGACGTGCTA | 0.731 |
| GGCGGTATCGGGACTGGGGACGTGCTA | 1.12 |
| TTAGATATTAAACTGATAGGGTGCTAG | 0.245 |
| TCAGCTTCCATTTTCTGACTGTGCTAG | 1.4 |
| GACGATATCGGGTTTCTAGACGTGCTA | 2.06 |
| GACGGTATCGGGACTGGGGCCGTGCTA | 1.07 |
| TCAGGAGTCAACTCTCTAACTGTGCTA | -0.343 |
| CCAGACTTGATTTTGGTCTTGTGCTAG | 0.272 |
| CACGATCTCAGTCTCGAGACGTGCTAG | -0.0729 |
| TCAAGTTTCTCAACCACACTGTGCTAG | 0.972 |
| TCAATTCTCAACCCTGGTACTGTGCTA | 0.284 |
| GACGGACTGGGGTTTCTGGACGTGCTA | -0.464 |

Sample 3 — target: CCNB1, cyclin fold, Cln2 fusion (human); method: yeast growth competition, sequencing; matrix: yeast; setting: weak parent motif; reference: not given; direction: higher = stronger binding
Parent: CDC6 docking peptide (human); TLKGRRLVFDNQL
| Substitution | normalised enrichment score |
| --- | --- |
| TLKGRRLVGDNQL [F9G] | 0.0744 |
| TLKGRRLVRDNQL [F9R] | 0.446 |
| TLKGRRLVFDNQC [L13C] | 0.18 |
| TLKGRRLVFDNQF [L13F] | 0.559 |
| TLKGCRLVFDNQL [R5C] | 0.363 |
| TLKGFRLVFDNQL [R5F] | -0.195 |
| TLKGRRLVFDGQL [N11G] | 0.222 |
| TLKGRKLVFDNQL [R6K] | -0.202 |
| TLKWRRLVFDNQL [G4W] | 0.129 |
| TLKGRRLVFSNQL [D10S] | 0.552 |
| TLKGRRLVWDNQL [F9W] | 1.01 |
| TLEGRRLVFDNQL [K3E] | 0.108 |
| TLKGARLVFDNQL [R5A] | 0.376 |
| TLKGMRLVFDNQL [R5M] | 0.234 |
| TLKGQRLVFDNQL [R5Q] | -0.737 |
| TLKGRRLVFDNQG [L13G] | 0.203 |
| TLKGRRLVFDPQL [N11P] | 0.676 |
| TLKGRRLVFINQL [D10I] | 0.772 |
| TLVGRRLVFDNQL [K3V] | 0.539 |
| TLKIRRLVFDNQL [G4I] | 0.494 |

Sample 4 — method: universal PBM; form: double-stranded DNA, one strand shown; matrix: in vitro; tested at: 600 nM; direction: higher = stronger binding
Target: Sal-like protein 4, full length isoform A (SALL4, Homo sapiens, UniProt Q9UJQ4, residues 1-1053)
Chain of UniProt Q9UJQ4 (whole entry, looked up): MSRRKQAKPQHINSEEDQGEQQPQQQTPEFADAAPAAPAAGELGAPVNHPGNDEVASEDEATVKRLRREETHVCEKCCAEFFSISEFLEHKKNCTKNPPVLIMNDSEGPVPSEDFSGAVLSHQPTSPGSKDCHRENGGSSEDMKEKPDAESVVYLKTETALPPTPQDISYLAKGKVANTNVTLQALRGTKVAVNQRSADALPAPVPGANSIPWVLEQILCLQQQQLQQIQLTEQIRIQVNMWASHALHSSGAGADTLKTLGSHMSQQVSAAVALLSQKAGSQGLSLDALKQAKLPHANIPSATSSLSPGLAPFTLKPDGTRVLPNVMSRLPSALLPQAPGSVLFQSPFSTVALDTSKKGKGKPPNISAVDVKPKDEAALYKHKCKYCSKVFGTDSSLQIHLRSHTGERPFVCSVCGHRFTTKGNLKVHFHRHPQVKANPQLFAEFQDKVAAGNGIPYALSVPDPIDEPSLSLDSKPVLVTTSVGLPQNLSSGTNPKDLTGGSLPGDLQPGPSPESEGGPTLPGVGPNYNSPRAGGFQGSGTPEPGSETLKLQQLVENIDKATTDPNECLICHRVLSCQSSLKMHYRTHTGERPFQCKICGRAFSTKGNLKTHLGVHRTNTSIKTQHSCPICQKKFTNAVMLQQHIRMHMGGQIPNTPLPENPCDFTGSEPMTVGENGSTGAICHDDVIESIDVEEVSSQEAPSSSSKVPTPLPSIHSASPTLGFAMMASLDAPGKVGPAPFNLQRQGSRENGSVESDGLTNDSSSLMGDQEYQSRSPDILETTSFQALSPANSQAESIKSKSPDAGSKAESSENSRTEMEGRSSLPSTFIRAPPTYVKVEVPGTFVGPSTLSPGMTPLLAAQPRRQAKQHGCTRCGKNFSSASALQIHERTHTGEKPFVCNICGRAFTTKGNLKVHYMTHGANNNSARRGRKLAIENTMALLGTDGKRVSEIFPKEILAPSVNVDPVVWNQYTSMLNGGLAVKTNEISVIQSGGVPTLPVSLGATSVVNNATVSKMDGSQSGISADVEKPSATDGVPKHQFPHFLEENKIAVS
Setting: 8-mer, flanks averaged, mean of replicates
| Strand | E-score |
| --- | --- |
| CACTAGAG | -0.00983 |
| GATAAGAC | 0.121 |
| CGCAATCA | 0.00957 |
| GCCGTACA | -0.0603 |
| CGTCTCAA | 0.0865 |
| TCCCTAGA | 0.0121 |
| AATGGACA | 0.168 |
| TGCCCCAA | -0.00647 |
| AGACGATC | -0.265 |
| CCACCAGC | -0.195 |
| CCAGACCC | -0.314 |
| AAGCGATC | -0.0503 |
| GAAGTGTA | 0.0178 |
| CAGATTAG | -0.0356 |
| ACCCCGAT | -0.164 |
| AAACAGGT | 0.076 |
| GTGTGTCA | 0.158 |
| GGACCCCA | -0.376 |
| AAAGATCA | 0.0875 |
| AGACCTAA | -0.0174 |
| ATGCATTG | 0.103 |
| ACAAAGCC | -0.0961 |
| AGAAAACC | -0.00101 |
| CATTTTGG | 0.212 |
| GACGACAA | 0.043 |

Sample 5 — method: DHFR PCA, deep sequencing; matrix: yeast; together with: (+)-ABA 4.8 µM; reference: wild-type fitted maximum; direction: higher = stronger binding
Target: ABI1, truncated, D143A, DHFR fusion (Arabidopsis thaliana)
Setting: methotrexate growth selection, single substitutions
Parent: PYL1, truncated, DHFR fusion (Arabidopsis thaliana); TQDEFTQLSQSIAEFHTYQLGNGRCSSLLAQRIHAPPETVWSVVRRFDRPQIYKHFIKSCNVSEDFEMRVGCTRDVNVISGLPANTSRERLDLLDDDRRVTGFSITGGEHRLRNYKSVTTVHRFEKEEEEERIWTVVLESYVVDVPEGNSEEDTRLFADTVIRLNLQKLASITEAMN; partner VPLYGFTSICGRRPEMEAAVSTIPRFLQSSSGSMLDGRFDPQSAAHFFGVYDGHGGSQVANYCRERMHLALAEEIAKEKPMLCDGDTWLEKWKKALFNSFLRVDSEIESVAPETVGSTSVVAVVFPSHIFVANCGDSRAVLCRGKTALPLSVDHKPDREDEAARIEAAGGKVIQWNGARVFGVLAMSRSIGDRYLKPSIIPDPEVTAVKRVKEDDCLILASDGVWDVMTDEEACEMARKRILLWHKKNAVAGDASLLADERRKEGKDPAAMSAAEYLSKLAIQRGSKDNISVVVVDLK
| Substitution | relative binding score [%] |
| --- | --- |
| Q19E | 83.5 |
| L93Y | 63.7 |
| Q2S | 72.5 |
| K58S | 61.3 |
| F15G | 0.606 |
| A13N | 64.7 |
| R163H | 25.2 |
| M176F | 51.5 |
| I105V | 69.4 |
| E151A | 86.1 |
| D3Q | 71.5 |
| D92I | 5.64 |
| E147K | 57.4 |
| F56L | 61.1 |
| R98M | 48.9 |
| T1Q | 71 |
| N165S | 3.43 |

Sample 6 — target: HLF, bZIP domain (human); method: DHFR protein complementation; matrix: yeast; reference: wild-type JUN-FOS pair; direction: higher = stronger binding
Setting: single substitutions, most at no-binding floor
Parent: JUN, bZIP domain (human); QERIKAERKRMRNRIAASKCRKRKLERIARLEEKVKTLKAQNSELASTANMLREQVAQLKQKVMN; partner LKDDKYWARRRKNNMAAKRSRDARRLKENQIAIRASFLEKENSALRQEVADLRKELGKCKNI
| Substitution | binding fitness |
| --- | --- |
| L59A | -1.26 natural log |
| T37P | -1.53 natural log |
| R30P | -1.32 natural log |
| A40S | -1.48 natural log |
| L38K | -1.41 natural log |
| A57W | -1.46 natural log |
| K34L | -1.32 natural log |
| E33T | -1.52 natural log |
| I28A | -1.42 natural log |
| A46K | -1.36 natural log |
| A46W | -1.46 natural log |
| T37R | -1.35 natural log |
| L38C | -1.53 natural log |
| L52C | -1.47 natural log |
| S43N | -1.33 natural log |
| L45Q | -1.59 natural log |
| E54H | -1.52 natural log |
| K34H | -1.33 natural log |
| N42W | -1.49 natural log |
| R53N | -1.52 natural log |
| M51D | -1.31 natural log |
| E44S | -1.53 natural log |
| Q55T | -1.36 natural log |

Repeated from above (sample 1):
| Modification | mean fluorescence intensity [a.u.] |
| --- | --- |
| 2'F-ANA at 3 4 6 9 10 12 13 14 | 281 |
| 2'F-ANA at 1 7 8 13 14 15 | 69.3 |
| 2'F-ANA at 3 5 8 10 | 58.1 |
| 2'F-ANA at 2 3 5 6 8 11 12 13 15 | 126 |
| 2'F-ANA at 2 3 4 8 10 11 12 13 | 252 |
| 2'F-ANA at 1 3 5 6 8 9 10 12 13 15 | 61.2 |
| 2'F-ANA at 6 7 9 13 | 349 |
| 2'F-ANA at 1 3 4 7 9 10 11 14 | 62.8 |
| 2'F-ANA at 1 2 4 6 9 10 11 13 | 68.3 |
| 2'F-ANA at 1 2 3 9 11 13 | 188 |
| 2'F-ANA at 1 3 4 7 9 10 12 13 14 | 52.8 |
| 2'F-ANA at 3 4 10 11 15 | 267 |
| 2'F-ANA at 6 8 10 13 15 | 146 |
| 2'F-ANA at 2 3 4 5 6 7 8 11 12 13 | 108 |
| 2'F-ANA at 1 2 3 6 7 9 11 12 15 | 250 |
| 2'F-ANA at 2 3 4 10 12 | 303 |
| 2'F-ANA at 1 2 5 6 8 9 12 14 | 103 |
| 2'F-ANA at 1 7 9 13 14 | 53.5 |
| 2'F-ANA at 1 2 5 6 11 12 13 15 | 71.9 |
| 2'F-ANA at 1 11 12 13 14 | 245 |
| 2'F-ANA at 7 9 10 12 15 | 229 |
